Results collected from several papers.
Every numbered part comes from another study and shows a few of its results, in no order. Positions count from the first letter of the parent shown.

Study 1
Target: CCNE2, cyclin fold, Cln2 fusion (human)
Technique: yeast growth competition, sequencing
Medium: yeast
Setting: strong parent motif
Baseline: not given
Reading: higher = stronger binding
Parent: WEE1 docking peptide (human); HKTFRKLRLFDTP
`HKTFRKLRVFDTP [L9V]` — result for “normalised enrichment score”: 0.891.
For `HKTIRKLRLFDTP [F4I]`, “normalised enrichment score” read 0.633.
`HKTFRKLALFDTP [R8A]`: “normalised enrichment score” 0.382.
`HKTFRKLRLFDTN [P13N]`: “normalised enrichment score” 1.49.
Under “normalised enrichment score”, `HKTFRKVRLFDTP [L7V]` is recorded as 0.402.
For `HKTFRKLTLFDTP [R8T]`, “normalised enrichment score” read 0.593.
`HKTFRKLRLFDPP [T12P]` — result for “normalised enrichment score”: 0.733.
Under “normalised enrichment score”, `HKTYRKLRLFDTP [F4Y]` is recorded as 0.648.
`HKTFRKLRLFDTT [P13T]` — result for “normalised enrichment score”: 0.43.
`HKTFRKLRLWDTP [F10W]` — result for “normalised enrichment score”: 1.01.
`HKTFRKGRLFDTP [L7G]` — result for “normalised enrichment score”: 1.19.
Under “normalised enrichment score”, `HKTFRKLRLFATP [D11A]` is recorded as 0.717.
For `HITFRKLRLFDTP [K2I]`, “normalised enrichment score” read 0.844.

Study 2
Target: RNA binding protein fox-1 homolog 2, RRM domain, GST-SBP tag (RBFOX2, Homo sapiens, UniProt O43251-10, residues 100-194)
Technique: RNA Bind-n-Seq
Molecule type: RNA
Medium: in vitro
Concentration: 365 nM
Setting: natural RNA segment, single round, ends assumed
Baseline: no-protein control
Reading: higher = stronger binding
Target sequence (chain): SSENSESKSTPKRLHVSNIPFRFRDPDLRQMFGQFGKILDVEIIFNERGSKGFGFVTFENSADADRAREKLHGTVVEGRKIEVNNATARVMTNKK
Under “RBNS enrichment (R)”, `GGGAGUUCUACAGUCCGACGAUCUACCUUUUCUGGGUGAUCUUGUGGCACAUGUAGCAAUGUUUCUUUCAUUCCUGUCCCUUCCUGGCUUGAGCUCUUGGCUGUAUUCUGUGUGCCUCUACCAUGUCUGCUGUUGGAAUUCUCGGGUGCCAA` is recorded as 0.456.
`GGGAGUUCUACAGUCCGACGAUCCCCAGGCCAUACUCCCUGCCUCCUUUCUUCUGCCUACCAGAGGCUCCAGAGUUGAGCUUGUCCUUAUCUAGAAACAUGUGAAGAUGCCCAAGAGCCUGGAGGCACUGCUGUGGAAUUCUCGGGUGCCAA` — result for “RBNS enrichment (R)”: 0.5.
`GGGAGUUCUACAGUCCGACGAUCUAUAGUAGGCAAAAAGUACAGAAAUAGAUGCAAUAAGUGUGGUGAGUCUUUGAGCCUACGAGUCAUGCCACCAGCCAUAAGUUGACCUAUCACUUGAGAACCUCCUCAGCUGGAAUUCUCGGGUGCCAA`: “RBNS enrichment (R)” 0.395.
For `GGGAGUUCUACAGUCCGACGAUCCACUAGUGGGACAGCGGUUUUCAAUGGUGCUGAUCAGUCGACUCGUCAACUCCUGUCAUUUUUAGAAAAUAAAACUGGAAAUUGAAUGUGGGUGGCAUGAUUGUACCCUCUGGAAUUCUCGGGUGCCAA`, “RBNS enrichment (R)” read 13.3.
`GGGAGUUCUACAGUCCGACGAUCCCUGCCAGUCAAGCAAUGAAUCCCAGCAGCCAUGGCCAGACAAUUCCUGUUCAGACUUUUCCUGAUGACAAUAGUAUCGAGGACACACCAUCAAAAUGUUACUGCCGGUUUGGAAUUCUCGGGUGCCAA`: “RBNS enrichment (R)” 0.46.
`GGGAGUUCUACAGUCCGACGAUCGCUGGGAUCGAUUCCUAGCUUUACCACUAACUAGCUGUGUGGCCUUGAGUAAAUCCCGUUACCUCUCUGAGCCUCGGUUACCCUGUCUGUAAAAAGGGAGGUGAGAAUACUGGAAUUCUCGGGUGCCAA`: “RBNS enrichment (R)” 0.425.
Under “RBNS enrichment (R)”, `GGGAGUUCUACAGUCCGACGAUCAUACAUCUAUAGUUCUCCCCCGGGGAGCUAGUGUUUGAACUUUGAAGUCUGCUCAGCUGCAUGGUGGAAAGGACUGUGUUCUUUUUUUUCUUGCACACAAUUCCUUUGAAUGGAAUUCUCGGGUGCCAA` is recorded as 1.01.
For `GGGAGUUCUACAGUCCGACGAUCAUCUUCACUGUUUCACCAUCUAGCUUGCUAAGUCAAAUAUUUAUGAUGAUAAUGAGGUACUGAACCACGAUGGCUGUUGAGGAAUUGGUCCUAAAAGGACAGAUCACUUCUGGAAUUCUCGGGUGCCAA`, “RBNS enrichment (R)” read 0.34.

Study 3
Target: FOSL1, bZIP domain (human)
Technique: DHFR protein complementation
Medium: yeast
Setting: single substitutions, most at no-binding floor
Baseline: wild-type JUN-FOS pair
Reading: higher = stronger binding
Parent: JUN, bZIP domain (human); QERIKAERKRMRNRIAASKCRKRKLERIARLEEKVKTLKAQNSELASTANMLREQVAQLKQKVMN; partner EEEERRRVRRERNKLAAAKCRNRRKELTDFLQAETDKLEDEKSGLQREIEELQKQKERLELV
`T37C` has a binding fitness of -0.484 natural log.
`S47N` has a binding fitness of -0.347 natural log.
With `L45N` the binding fitness was -1.46 natural log.
With `T37K` the binding fitness was -0.37 natural log.
The binding fitness of `R30E` is reported as -0.0653 natural log.
With `A49C` the binding fitness was -0.585 natural log.
The binding fitness of `V35R` is reported as -0.573 natural log.

Study 4
Molecule: PhoQ, residues 284 288 289 292 302 303 TNSAEL
Technique: Sort-seq
Measured: YFP reporter
Medium: E. coli
Setting: PhoQ-PhoP variant library
With: 10 µM Mg2+
Baseline: high Mg2+ state
Reading: higher = stronger signaling
The fold induction was 19.8 (PhoP, residues 12 14 15 18 19 AYFRS (Escherichia coli, UniProt P23836)).
It gave 30.4 for fold induction (PhoP, residues 12 14 15 18 19 SFCSL (Escherichia coli, UniProt P23836)).
The fold induction was 1.26 (PhoP, residues 12 14 15 18 19 HHYTI (Escherichia coli, UniProt P23836)).

For quick reference, copied from above (study 4):
The fold induction was 19.8 (PhoP, residues 12 14 15 18 19 AYFRS (Escherichia coli, UniProt P23836)).
It gave 30.4 for fold induction (PhoP, residues 12 14 15 18 19 SFCSL (Escherichia coli, UniProt P23836)).
The fold induction was 1.26 (PhoP, residues 12 14 15 18 19 HHYTI (Escherichia coli, UniProt P23836)).
